Experimental data from different studies.
Lines come from different studies, so protocols differ.
Chain of UniProt Q15759 (whole entry, looked up): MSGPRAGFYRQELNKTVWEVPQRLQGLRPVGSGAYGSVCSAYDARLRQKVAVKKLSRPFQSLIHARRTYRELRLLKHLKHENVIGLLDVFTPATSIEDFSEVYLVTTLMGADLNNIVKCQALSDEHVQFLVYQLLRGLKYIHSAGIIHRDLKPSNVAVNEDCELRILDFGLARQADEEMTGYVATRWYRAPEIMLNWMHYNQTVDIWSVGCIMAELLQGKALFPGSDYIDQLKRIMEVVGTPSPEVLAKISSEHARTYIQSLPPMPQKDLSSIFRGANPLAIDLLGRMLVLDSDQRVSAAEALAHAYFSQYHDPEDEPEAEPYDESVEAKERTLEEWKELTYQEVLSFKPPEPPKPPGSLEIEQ
Chain of UniProt Q12866 (whole entry, looked up): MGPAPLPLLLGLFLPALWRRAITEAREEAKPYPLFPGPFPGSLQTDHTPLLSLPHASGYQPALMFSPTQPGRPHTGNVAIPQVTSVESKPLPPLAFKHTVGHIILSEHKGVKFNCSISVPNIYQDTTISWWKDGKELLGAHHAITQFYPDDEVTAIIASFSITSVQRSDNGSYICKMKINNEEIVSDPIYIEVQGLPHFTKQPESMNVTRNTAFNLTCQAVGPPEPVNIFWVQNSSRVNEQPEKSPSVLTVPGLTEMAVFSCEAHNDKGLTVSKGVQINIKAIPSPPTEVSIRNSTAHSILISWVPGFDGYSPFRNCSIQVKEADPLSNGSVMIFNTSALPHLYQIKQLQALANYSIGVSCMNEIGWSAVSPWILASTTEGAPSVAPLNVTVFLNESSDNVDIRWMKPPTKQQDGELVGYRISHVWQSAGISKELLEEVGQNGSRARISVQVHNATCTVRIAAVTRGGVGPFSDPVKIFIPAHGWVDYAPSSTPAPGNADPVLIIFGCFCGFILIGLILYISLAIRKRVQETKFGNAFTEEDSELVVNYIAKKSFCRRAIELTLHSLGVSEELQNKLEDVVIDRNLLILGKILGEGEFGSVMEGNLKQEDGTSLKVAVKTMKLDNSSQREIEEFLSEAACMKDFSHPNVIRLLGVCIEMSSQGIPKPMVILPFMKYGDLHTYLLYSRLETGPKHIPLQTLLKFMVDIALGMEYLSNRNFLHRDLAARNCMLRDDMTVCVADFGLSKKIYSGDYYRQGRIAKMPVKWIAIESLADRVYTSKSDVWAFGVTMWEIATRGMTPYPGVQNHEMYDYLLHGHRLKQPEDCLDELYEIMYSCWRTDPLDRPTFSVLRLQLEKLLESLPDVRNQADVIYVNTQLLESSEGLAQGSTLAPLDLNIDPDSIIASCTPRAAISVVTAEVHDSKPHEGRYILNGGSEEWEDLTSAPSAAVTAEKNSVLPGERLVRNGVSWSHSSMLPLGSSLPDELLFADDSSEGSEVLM
Chain of UniProt P49840 (whole entry, looked up): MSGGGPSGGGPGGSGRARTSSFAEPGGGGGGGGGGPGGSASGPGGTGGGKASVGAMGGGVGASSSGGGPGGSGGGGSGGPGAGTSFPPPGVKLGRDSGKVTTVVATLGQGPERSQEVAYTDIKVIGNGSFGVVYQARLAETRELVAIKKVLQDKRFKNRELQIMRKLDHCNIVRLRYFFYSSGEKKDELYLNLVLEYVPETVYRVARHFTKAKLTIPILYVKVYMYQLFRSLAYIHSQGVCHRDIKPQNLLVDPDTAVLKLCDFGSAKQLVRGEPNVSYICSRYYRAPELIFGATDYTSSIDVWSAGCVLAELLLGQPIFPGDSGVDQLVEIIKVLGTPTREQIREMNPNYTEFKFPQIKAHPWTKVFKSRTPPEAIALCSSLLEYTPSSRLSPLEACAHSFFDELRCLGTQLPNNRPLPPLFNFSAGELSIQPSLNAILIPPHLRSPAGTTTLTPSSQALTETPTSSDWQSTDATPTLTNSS
Chain of UniProt P10721 (whole entry, looked up): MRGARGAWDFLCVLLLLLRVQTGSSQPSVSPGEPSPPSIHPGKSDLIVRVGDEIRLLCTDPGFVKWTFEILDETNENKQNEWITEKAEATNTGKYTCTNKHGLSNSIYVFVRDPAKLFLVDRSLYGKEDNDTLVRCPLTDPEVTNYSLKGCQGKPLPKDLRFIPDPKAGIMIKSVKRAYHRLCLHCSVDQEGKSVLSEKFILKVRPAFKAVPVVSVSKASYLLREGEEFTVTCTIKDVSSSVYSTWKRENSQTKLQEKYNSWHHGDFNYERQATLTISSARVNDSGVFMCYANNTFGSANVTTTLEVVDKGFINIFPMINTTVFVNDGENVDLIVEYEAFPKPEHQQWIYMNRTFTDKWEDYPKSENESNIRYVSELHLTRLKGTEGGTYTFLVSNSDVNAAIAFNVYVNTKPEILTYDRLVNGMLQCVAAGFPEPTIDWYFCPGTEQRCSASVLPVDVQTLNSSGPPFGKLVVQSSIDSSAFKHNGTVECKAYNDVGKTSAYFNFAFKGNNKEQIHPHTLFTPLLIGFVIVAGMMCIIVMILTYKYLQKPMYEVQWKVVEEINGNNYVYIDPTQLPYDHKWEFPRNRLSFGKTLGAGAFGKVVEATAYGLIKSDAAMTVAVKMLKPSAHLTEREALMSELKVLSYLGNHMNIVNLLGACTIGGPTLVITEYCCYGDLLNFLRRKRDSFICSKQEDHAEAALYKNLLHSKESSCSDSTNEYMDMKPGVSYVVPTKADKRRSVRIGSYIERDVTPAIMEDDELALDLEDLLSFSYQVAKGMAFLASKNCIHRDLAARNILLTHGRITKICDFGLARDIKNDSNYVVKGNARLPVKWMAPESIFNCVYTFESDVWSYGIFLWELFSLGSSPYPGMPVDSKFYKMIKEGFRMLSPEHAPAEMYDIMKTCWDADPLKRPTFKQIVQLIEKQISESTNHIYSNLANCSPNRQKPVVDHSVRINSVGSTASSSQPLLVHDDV

SMILES | target or system | assay | system | conditions | measurement | value
C=CCn1c(=O)c2cnc(Nc3ccc(N4CCN(C)CC4)cc3)nc2n1-c1ccc2c(n1)[C@@](O)(CC)CC2 |  | metabolic stability | dog, hepatocytes |  | half-life | 7.43 h
C=CC(=O)N1CCC(COCC(=O)N2CCN(c3nc(-c4cnc(N)nc4C(F)F)nc(N4CCOC[C@@H]4C)n3)CC2)CC1 | GSK3A (Homo sapiens, UniProt P49840) | binding, competition with immobilised ligand |  | 1 µM | remaining binding | 93%
CCOc1ccc2ccc(=O)oc2c1 |  | metabolic stability | male beagle dog, hepatocytes | 1 µM | half-life | < 0.25 h
CC(=O)N(C)[C@H]1CCN(C(=O)c2cnc3c(c2)C[C@](C)(c2ccc(F)cc2)N3)C1 |  |  | male human, plasma | oral, 15 mg, multiple doses, once daily, steady state | half-life | 24.3 h
Cc1cc([C@@H](C)Nc2ccccc2C(=O)O)c2nc(N3CCC(F)(F)CC3)c(C#N)c(=O)n2c1 | KIT (Homo sapiens, UniProt P10721) | binding, competition with immobilised ligand |  | 1 µM | remaining binding | 99%
COc1cc(-c2cncc3c2CN(C)Cc2cc(N4CCNCC4)ccc2-3)cc(OC)c1OC | MERTK (Homo sapiens, UniProt Q12866) | enzyme activity, inhibitor |  | 1 µM | remaining activity | 120%
O=c1ccc2ccc(O)cc2o1 |  | metabolic stability | dog, liver microsomes |  | half-life | 0.0335 h
O=C(c1ccc(F)cc1)C1CCN(CCn2c(=O)[nH]c3ccccc3c2=O)CC1 |  | metabolic stability | monkey, liver microsomes |  | half-life | 0.46 h
O=C(COc1ccc(Cl)cc1)NC12CC(c3nnc([C@H]4C[C@@H](OC(F)(F)F)C4)o3)(C1)C2 |  |  | human, plasma | oral, 260 mg, multiple doses, once daily, healthy volunteers | half-life | 39.3 h
COc1ccc2c(c1)CN(C(=O)CCN1CCC(Cc3ccccc3)CC1)CC[S@@+]2[O-] |  |  | male human, plasma | intravenous, 0.01 mg/kg, single dose, healthy volunteers | half-life | 4.81 h
CCCC(=O)N[C@@H](Cc1ccccc1)C(=O)N[C@@H](Cc1ccc2ccccc2c1)C(=O)N[C@@H](CCCNC(=N)N)C(=O)N[C@@H](CCCNC(=N)N)C(=O)N[C@@H](CCCNC(=N)N)C(=O)N[C@@H](CCCNC(=N)N)C(=O)N[C@@H](CC)C(=O)N[C@@H](CCCCNC(=S)Nc1ccc2c(c1)C(=O)OC21c2ccc(O)cc2Oc2cc(O)ccc21)C(N)=O |  | chemical stability | human, serum |  | half-life | ~0.25 h
CNc1ncc2c(/C=C/C(=O)N3CCC(OC)CC3)nn(Cc3cccc(C(F)(F)F)c3)c2n1 | MAPK11 (Homo sapiens, UniProt Q15759) | enzyme activity, inhibitor, radiometric |  | 1 µM | remaining activity | 87%
O=C1CC[C@H](N2Cc3cc(N4CCN(CC5CCN(c6ccc([C@@H]7c8ccc(O)cc8CC[C@@H]7c7ccccc7)cc6)CC5)CC4)ccc3C2=O)C(=O)N1 |  |  | male Sprague-Dawley rat, plasma | intravenous, 5 mg/kg, single dose, fed | half-life | 2.73 h
